Assay results pooled from the literature.
A part holds a random share of what one study measured.

Block 1
Target: Histone acetyltransferase KAT6A, winged helix 1, GST fusion (KAT6A, Homo sapiens, UniProt Q92794, residues 1-85)
Technique: protein binding microarray
Molecule type: double-stranded DNA, one strand shown
Sample: in vitro
Tested at: not given
Setting: 8-mer, flanks averaged, mean of 2 arrays, mostly near background
Relative to: not given
Reading: higher = stronger binding
Target sequence (chain): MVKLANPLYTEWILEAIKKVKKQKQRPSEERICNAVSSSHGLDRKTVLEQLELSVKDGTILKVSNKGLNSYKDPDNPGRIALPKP
Oligonucleotide | E-score
CCCCCTTA | -0.0987
CAGTCGAG | -0.14
CAAGAATC | -0.0971
ACGCCACG | 0.18
ATGCGATC | -0.0233
GGTAAGCA | -0.0646
ACATACGA | -0.161
AGTCTTCC | -0.0428
ATCCTAGC | -0.199
CGGATACG | 0.302
GGTTTCTA | -0.0962
CCTTTTGA | -0.11
AAATTCGT | -0.139
GTCGGAGA | 0.183
CCTCTACG | -0.104
CCACCAGC | -0.212
GGCTACTA | 0.095
CGATAGAA | -0.0597
CTAATGCA | -0.115
CCAAACCA | -0.223
CGCAATCA | 0.159
AATACGAC | -0.101

Block 2
Target: RING finger protein unkempt homolog, zinc fingers 1-6, GST-SBP tag (UNK, Homo sapiens, UniProt Q9C0B0, residues 30-357)
UniProt Q9C0B0, sequence (30-357, looked up): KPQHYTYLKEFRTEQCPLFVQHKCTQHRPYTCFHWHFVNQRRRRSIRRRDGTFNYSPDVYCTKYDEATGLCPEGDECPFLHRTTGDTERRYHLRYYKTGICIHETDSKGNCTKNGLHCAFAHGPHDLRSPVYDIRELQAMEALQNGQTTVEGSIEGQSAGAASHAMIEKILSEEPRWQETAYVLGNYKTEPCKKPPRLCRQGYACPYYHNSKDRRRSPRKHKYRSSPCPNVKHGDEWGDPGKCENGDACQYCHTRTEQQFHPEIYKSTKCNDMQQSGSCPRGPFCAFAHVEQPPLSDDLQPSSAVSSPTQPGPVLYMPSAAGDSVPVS
Technique: RNA Bind-n-Seq
Molecule type: RNA
Sample: in vitro
Tested at: not given
Setting: RNA with constant flanks, human-mouse chimeric sites, ends assumed
Relative to: input RNA pool
Reading: higher = stronger binding
All sequences stand within: GGGAGUUCUACAGUCCGACGAUC … CAACAGAGGAUUGAGCAUCA
Oligonucleotide | bound/input enrichment
CUCAGAGACGUGGCAUAUCAGUAUGUGAAAAAGGGGGCUCGUAUAUUUGUGGAAGGGAAAAUAGACUAUGGCGAGUACAUGGAUAAAAACAAUGUGAGGCGGCAAGCAACAACAAUCAUA | 0.525 ratio
AAGGUGAUGACUAUGUUUGUCCAACGACAGGUGUUUGCGGAGAGCAAAGAUGAGAUUGCGUUAGUCCUCUAUGGCACAGAUGGCACUGAUAAUGCCCUUGCUGGCAAGGACCAGUAUCAG | 0.206 ratio
AAAGAGUGGAUAGAGUGUGCACACGGGAUCGGUGGGACUCGGGCAGAAAAGGAGUGCAAGAUAGAGUAUGAUGAUUUCGAAGAGUGCUUGCUUCGGUACAAAACGAUGAGGCGAAUGCAU | 0.795 ratio
AUAGAUGAAAUUGAUGUGGACCAGGAAGGAAUUGCUGAAAUGAUCCUGGAUGAAAAUGCUAUUGCUCAAGUUCCACGCCCUGGCACAUCUUUGAAGCUCCCUGGCACUAAUCAGACAGGA | 0.25 ratio
GAGUCGAGCAAACUUGAAACAAUUCGUUAUCUUGCAGAGCUUCGGUGUUUACUUGCCGCGAUAGCAUUGGGGUUUUAUAGGUUCUGGAAGGAGAACUGACGAUGAUGCUGCCGCUGCUGC | 0.623 ratio
CUGAGGAUACCACUGAAAGAGACAUUAAAGAAUCAUUUGAGGGCUCUGUUCGUGCAAGAAUAGUCACUGAUCGGGAAACUGGUUCUUCCAAAGGGUUUGGUUUUGUAGACUUUAAUAGUG | 1.08 ratio
UCAUUUUUCUCUUUUCUUUCUUUCCUUUAGGAAAAGCCUAAAGAUUAGUAAGAAAAGAAAACAGAAGCCAUGUUUCGAAGACCUGUGUUACAGGUACUUCGUCAGUUUGUAAGACAUGAG | 0.171 ratio
CCCCAAUACCAUUUGCAGGUCUGGAACCUGCAUUCUUUUUUUAAAAAACAUGUAUACAUUUUAGGGCUGUAGAUUUAUUUUCCUGGUUUUGUUUUUCAUUGCUGACUUUGAGCACAAGAA | 1.19 ratio

Block 3
Target: Interferon regulatory factor 5, full length, phosphomimetic (IRF5, Homo sapiens, UniProt Q13568-2, residues 1-514, K96S/S451D/S453D/S456D/S462D)
Technique: protein-binding microarray
Molecule type: double-stranded DNA, one strand shown
Sample: in vitro
Tested at: 250 nM
Setting: 60-bp whole probe
With: salmon DNA 0.4 mg/ml
Relative to: random background probes
Reading: higher = stronger binding
All sequences stand within: GCCTAGCAC … GTCTTGATTCGCTTGACGCTGCTG
Oligonucleotide | log fluorescence
GACGGACTGGGAACTGGGGACGTGCTA | -0.678 z-score
GACGGACTGCTTCTCCTTACGTGCTAG | -0.251 z-score
TCACTCTCTCTATTCTGTGGGTGCTAG | 0.573 z-score
TTAGGACTGGGGTATCGGTTAGTGCTA | 2.24 z-score
TTAGATATCGGGTATCCATTAGTGCTA | 2.39 z-score
CACGGTCTCGGTTTCGGGACGTGCTAG | 3.33 z-score
TTGTGTCAACTTTCTCTGCTCGTGCTA | 1.22 z-score
GACGGTATCGACTATCGGCACGTGCTA | 4.04 z-score
TTAGGTTTCGGTCACGGTTAGTGCTAG | 10.5 z-score
TTCGGTATCCTTATCCTTTAGTGCTAG | 1.08 z-score
GACGGTTTCCTAATGCTGACGTGCTAG | 0.354 z-score
TTAGGACTGGGTTTCGTTTAGTGCTAG | 3.72 z-score
GGCTCCTCCCCGCTTCTGGAGTGCTAG | -0.572 z-score
TTAAGACTGGGACTGGGTTAGTGCTAG | -0.26 z-score
TCAATTTTCATTTTCCAACTGTGCTAG | 2.85 z-score
GACGGACTGGGGACTGCGGACGTGCTA | -0.721 z-score
GACGAACTGGGGACTGGAGGCGTGCTA | -0.528 z-score
TTAGGTATCAACTTTCGGTTAGTGCTA | 9.84 z-score
TCACCTGTCCATTCCTTACTGTGCTAG | 0.539 z-score

Block 4
Target: RNA binding protein fox-1 homolog 2, RRM domain, GST-SBP tag (RBFOX2, Homo sapiens, UniProt O43251-10, residues 100-194)
Technique: RNA Bind-n-Seq
Molecule type: RNA
Sample: in vitro
Tested at: 365 nM
Setting: natural RNA segment, single round, ends assumed
Relative to: no-protein control
Reading: higher = stronger binding
All sequences stand within: GGGAGUUCUACAGUCCGACGAUC … UGGAAUUCUCGGGUGCCAA
Residues (chain): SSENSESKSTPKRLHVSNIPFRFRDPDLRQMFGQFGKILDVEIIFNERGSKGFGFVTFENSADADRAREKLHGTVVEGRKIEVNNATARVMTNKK
Oligonucleotide | RBNS enrichment (R)
GCUCCCCCUCGUCCUGACUCAGCUCGGGUGUGUGCAGCAUCAGGCUGUGCCUGCUCCAGAGGCAUGGGCCACCUGGGUAACAGCACACAGCAGAAAAGCACAGAGAGAAA | 0.423
CUUUCAAAUAAAACACCAGUCAGGUACCUUUAUCCCAGUCUUAACUGUCCCAAAUCUGGAAGGUCCAGAGUAAGCAGGAUUCAGGGAGAGGGAGUGGAUAGCAAGUAUCC | 0.557
AGUGGGGUUGUGGUUGGUUGGUAUAGAAUGGUGGGAAUUCAAAUUUUUCUAAACUCAUGGUAAGUAUAUUGUAAAAUACAUAUGUACUAAGAAUUUUCAAAAUUGGUUUG | 33.2
AACACCAGCAGUUGUCAUUCAGUGCAGGUUUUUGUACUUCUAUAUGGUGAUUUUUUUACUUAAAAGCAGAAACAGAAGUUGACCUUCCUGACAUGUGUUUAAUAUUCCUC | 0.308
GGUGUGUGUAAGUAUGUGUGCACAUGGGAGUGUGGGUGUGUGUGUGUGCACAUGUGUGGGUGUGUGUGCACAUGUUUGGAUGUGUGCACAUGUGCAUGCCUGUUUCUUUU | 2.03
UUGUGACCUCUACUUUUUGUCACUAAUAGCCUACAUUCAAGUGCCUGUGUUUUUUCAUCUUGUUUAGGAAUGUUUUGAGAUUAAUGUGCUUAAAAGUCCUACGUGACUGA | 0.424
UAUUCCCCAAGAGUGGUAACUAACCCACAGCCCUGCUCGGUGUGCCCACCGCUGAGAGGCUGCAGUGACUUCCCCAAGUACCGUGGUCUGUGCUAAUUUGUUUUCAGAUU | 0.294
AGGGACACCUGGGCCAAUGGGCCAUCUGGACCAAAGGUGGGGUGUGGGGCCCUGGAUGGCAGCUCUGGCCCAGACAUGAAUACCUCGUGUUCCUCCUCCCUCUAUUACUG | 1.03

Excerpt of the above (block 3):
Oligonucleotide | log fluorescence
TTAGGACTGGGGTATCGGTTAGTGCTA | 2.24 z-score
TTAAGACTGGGACTGGGTTAGTGCTAG | -0.26 z-score
TCACTCTCTCTATTCTGTGGGTGCTAG | 0.573 z-score
TCAATTTTCATTTTCCAACTGTGCTAG | 2.85 z-score
